Measurements gathered from unrelated publications.
Parts stem from different laboratories: compare values within a part only. Positions count from the first letter of the parent shown.

Series 1 — method: protein binding microarray; form: double-stranded DNA, one strand shown; matrix: in vitro; concentration: not given; baseline: not given; direction: higher = stronger binding
Target: Histone acetyltransferase KAT6A, both winged helices, GST fusion (KAT6A, Homo sapiens, UniProt Q92794, residues 1-181)
Notes: 8-mer, flanks averaged, mean of 2 arrays, mostly near background
Target sequence (chain): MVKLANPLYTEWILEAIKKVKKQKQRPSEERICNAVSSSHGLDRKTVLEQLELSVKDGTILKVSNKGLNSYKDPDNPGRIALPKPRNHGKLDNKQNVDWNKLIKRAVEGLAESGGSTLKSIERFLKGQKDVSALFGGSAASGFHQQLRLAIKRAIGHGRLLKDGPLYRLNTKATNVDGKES
Sequence | E-score
GCGTAAAC | 0.267
ACTCTACC | -0.186
CGGGTCAA | 0.173
GTTTTATA | -0.0197
CTTGATGC | -0.0652
GAAGGGGC | -0.148
ACATGGGG | -0.179
AGCAGTGA | -0.0656
GGAGAGTA | -0.179
CCACTAGG | -0.191
CATAACCA | -0.17
TAGAGACA | -0.221
ATGGCCTG | -0.153
CTGCACTC | -0.0943
CCCATACG | 0.0205
ACTTCTGA | -0.166
TCCCCGAA | -0.00317
ACGGTGTA | 0.126
CACCATAA | -0.0312
CTTGCCAA | -0.192
GTCGTGTA | 0.104
CTCCAGAA | -0.082
CTGATCGC | 0.0654
CTGTAAAC | -0.0378
CCGTAGAC | 0.177

Series 2 — method: protein-binding microarray; form: double-stranded DNA, one strand shown; matrix: in vitro; concentration: 250 nM; notes: 60-bp whole probe; with: salmon DNA 0.4 mg/ml; baseline: random background probes; direction: higher = stronger binding; shared flanks, not repeated: GCCTAGCAC … GTCTTGATTCGCTTGACGCTGCTG
Target: Interferon regulatory factor 7, full length, phosphomimetic (IRF7, Homo sapiens, UniProt Q92985, residues 1-503, S101K/S471D/S472D/S475D/S476D/S477D/S483D/S484D/S487D)
Residues (chain): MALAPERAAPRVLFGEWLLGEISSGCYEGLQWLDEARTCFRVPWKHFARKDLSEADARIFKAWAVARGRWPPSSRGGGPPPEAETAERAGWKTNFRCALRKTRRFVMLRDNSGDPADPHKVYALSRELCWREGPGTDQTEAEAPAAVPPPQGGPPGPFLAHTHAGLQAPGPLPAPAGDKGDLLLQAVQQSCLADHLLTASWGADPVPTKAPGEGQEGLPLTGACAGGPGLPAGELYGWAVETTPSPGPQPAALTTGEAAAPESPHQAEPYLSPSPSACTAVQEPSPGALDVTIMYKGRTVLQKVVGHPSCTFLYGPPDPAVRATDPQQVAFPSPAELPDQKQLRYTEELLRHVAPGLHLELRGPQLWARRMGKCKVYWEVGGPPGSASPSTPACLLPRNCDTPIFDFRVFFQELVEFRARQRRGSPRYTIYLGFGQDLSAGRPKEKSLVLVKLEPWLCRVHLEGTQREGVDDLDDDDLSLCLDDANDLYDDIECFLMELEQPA
Sequence | log fluorescence
TTAGAACTGGGGACCGGATTAGTGCTA | 0.152 z-score
TCAGGACTGGGTATCGGTTAGTGCTAG | 0.428 z-score
GACGGTTTCCTTCTCCTTACGTGCTAG | 2.53 z-score
GACGATCTCAGTCTCGAAACGTGCTAG | 0.734 z-score
GACGGACTGGACTTTCCGGACGTGCTA | -0.598 z-score
GACGATATCAGTCTGGAGACGTGCTAG | -0.606 z-score
GACGGACTGGGGTTACGGGACGTGCTA | -0.774 z-score
GACGGTATTCTACTGCTGACGTGCTAG | -0.183 z-score
GACGGACTGGGGTATCGGGTCGTGCTA | -0.43 z-score
GACGGTATCGACTATCGAGACGTGCTA | 0.076 z-score
CGGATGATCTCTCTGGGCAAGTGCTAG | -0.345 z-score
TTAGGTCCCGGTATCGGTTAGTGCTAG | 2.47 z-score
GACGATTTCAGTTTCGGGACGTGCTAG | 3.87 z-score
GACGGTATCAGGTTTCGGGACGTGCTA | 2.33 z-score
GTCGGACTGCTTCTCCTGACGTGCTAG | 0.194 z-score
GACGGTATCGGACTTGGGACGTGCTAG | -0.0413 z-score
TCATCTTTCCTTACTTCACTGTGCTAG | 1.9 z-score
ATAGATATCGGGTTTCGATTAGTGCTA | 7 z-score
TTTTACATTTTAAGAAATGTGTGCTAG | 1.04 z-score
GACGATCTCGGTCTCGAGACGTGCTAG | 0.468 z-score
TCATTTCTGTTTTTGCTACTGTGCTAG | 2.22 z-score

Series 3 — target: CCNB3, cyclin fold, Cln2 fusion (human); method: yeast growth competition, sequencing; matrix: yeast; notes: weak parent motif; baseline: not given; direction: higher = stronger binding
Parent: SLBP docking peptide (human); ARYKRKLLINDFG; partner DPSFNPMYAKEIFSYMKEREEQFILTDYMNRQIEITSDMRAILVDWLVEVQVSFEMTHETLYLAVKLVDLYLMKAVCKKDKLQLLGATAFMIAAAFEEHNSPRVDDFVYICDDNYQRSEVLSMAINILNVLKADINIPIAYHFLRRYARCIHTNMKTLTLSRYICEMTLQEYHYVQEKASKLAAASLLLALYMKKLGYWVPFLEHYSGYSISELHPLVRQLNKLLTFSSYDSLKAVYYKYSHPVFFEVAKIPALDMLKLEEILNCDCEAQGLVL
Substitution | normalised enrichment score
R2D | 0.423
L8F | 0.151
L7A | -0.0358
R2K | 0.414
N10C | 0.0728
R2W | 0.342
R2N | 0.654
F12D | 0.192
K4I | -0.117
F12I | 0.053
L7D | 0.179
G13Q | 0.527
K6C | 0.644
Y3T | 0.113
K6S | -0.323
L7R | 0.121
K4T | -0.27
G13I | -0.072
A1F | -0.0304
K4M | 0.213
D11I | 0.0035
K6Y | 0.13

Series 4 — target: CRIPT, C-terminal peptide; method: DHFR complementation, deep sequencing; matrix: yeast; baseline: wild type; direction: higher = weaker binding
Notes: single substitutions, model-inferred values
Parent: ERBIN, PDZ domain 1 (human); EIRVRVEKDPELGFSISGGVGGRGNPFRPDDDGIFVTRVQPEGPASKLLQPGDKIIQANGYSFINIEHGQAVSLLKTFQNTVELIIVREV; partner TKNYKQTSV
Substitution | binding free energy change
D31H | 0.61 kcal/mol
K54A | 0.431 kcal/mol
S62F | 0.0815 kcal/mol
F78I | 0.433 kcal/mol
P29T | 0.0274 kcal/mol
G19L | 1.21 kcal/mol
D53E | 0.626 kcal/mol
S15M | 0.263 kcal/mol
S17W | 1.44 kcal/mol
I86K | 1.11 kcal/mol
R5P | 0.186 kcal/mol
Q50D | 0.104 kcal/mol
P44S | 0.566 kcal/mol
R3Q | -0.0188 kcal/mol
D30Q | 0.339 kcal/mol
S46R | -0.0714 kcal/mol
L48H | 0.0582 kcal/mol
Q40I | 0.233 kcal/mol
G52P | 0.538 kcal/mol
E89L | 0.0318 kcal/mol
V87R | 0.00677 kcal/mol
L75F | 0.058 kcal/mol
Q79W | 0.123 kcal/mol
D9H | 0.112 kcal/mol
E42G | 0.0335 kcal/mol

Series 5 — method: universal PBM; form: double-stranded DNA, one strand shown; matrix: in vitro; concentration: 600 nM; direction: higher = stronger binding
Target: Sal-like protein 4, full length isoform A (SALL4, Homo sapiens, UniProt Q9UJQ4, residues 1-1053)
UniProt Q9UJQ4, sequence (whole entry, looked up): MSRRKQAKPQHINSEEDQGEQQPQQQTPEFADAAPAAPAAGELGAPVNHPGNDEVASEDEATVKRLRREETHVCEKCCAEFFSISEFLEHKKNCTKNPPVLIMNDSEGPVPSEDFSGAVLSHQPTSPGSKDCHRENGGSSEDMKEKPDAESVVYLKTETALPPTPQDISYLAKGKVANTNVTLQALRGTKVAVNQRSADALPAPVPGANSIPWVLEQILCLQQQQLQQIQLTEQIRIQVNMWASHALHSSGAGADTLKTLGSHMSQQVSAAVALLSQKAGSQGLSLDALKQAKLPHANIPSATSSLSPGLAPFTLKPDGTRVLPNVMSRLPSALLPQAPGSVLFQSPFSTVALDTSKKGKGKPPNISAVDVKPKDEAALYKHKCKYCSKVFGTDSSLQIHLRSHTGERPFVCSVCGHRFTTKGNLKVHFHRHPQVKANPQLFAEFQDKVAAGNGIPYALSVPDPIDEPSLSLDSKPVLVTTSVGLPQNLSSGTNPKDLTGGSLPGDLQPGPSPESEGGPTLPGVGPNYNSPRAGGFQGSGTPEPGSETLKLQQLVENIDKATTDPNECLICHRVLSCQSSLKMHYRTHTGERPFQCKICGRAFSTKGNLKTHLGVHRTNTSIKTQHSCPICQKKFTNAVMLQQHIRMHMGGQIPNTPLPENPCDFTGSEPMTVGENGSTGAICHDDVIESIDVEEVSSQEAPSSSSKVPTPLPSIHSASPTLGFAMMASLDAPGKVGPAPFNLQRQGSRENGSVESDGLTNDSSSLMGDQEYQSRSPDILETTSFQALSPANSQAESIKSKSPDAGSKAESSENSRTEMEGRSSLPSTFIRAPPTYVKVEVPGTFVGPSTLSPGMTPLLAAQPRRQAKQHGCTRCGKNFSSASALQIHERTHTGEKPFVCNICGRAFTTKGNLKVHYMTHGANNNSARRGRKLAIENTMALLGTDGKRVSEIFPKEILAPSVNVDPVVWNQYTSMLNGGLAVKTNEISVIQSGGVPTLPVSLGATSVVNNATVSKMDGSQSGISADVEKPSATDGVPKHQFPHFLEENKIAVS
Notes: 8-mer, flanks averaged, mean of replicates
Sequence | E-score
CGGTAAAG | -0.146
ACGGGGAA | -0.0632
AAAGCGTA | 0.031
CCCCGTCC | -0.302
AAGGAACG | -0.0567
ACACTGAT | 0.0476
CCTTGGCC | -0.298
CCCTTCAA | 0.00784
CTCTCATA | 0.184
TCAAGGAA | 0.0764
CAGTTCGC | 0.057
CCACGATC | 0.00823
CACACATG | 0.0508
CGGGTGGC | -0.371
CAATGTCA | 0.214
CAACGCCC | -0.223
CTTCAGGC | -0.2
ACTCGCGG | -0.252
ATGTACGC | 0.0787
CGATAGCC | -0.105
GTGTGTTA | 0.222
ATTCCAGC | -0.0653
GTCTTCAC | -0.131

Series 6 — method: DHFR PCA, deep sequencing; matrix: yeast; with: (+)-ABA 0 µM; baseline: wild-type fitted maximum; direction: higher = stronger binding
Target: ABI1, truncated, D143A, DHFR fusion (Arabidopsis thaliana)
Notes: methotrexate growth selection, single substitutions
Parent: PYL1, truncated, DHFR fusion (Arabidopsis thaliana); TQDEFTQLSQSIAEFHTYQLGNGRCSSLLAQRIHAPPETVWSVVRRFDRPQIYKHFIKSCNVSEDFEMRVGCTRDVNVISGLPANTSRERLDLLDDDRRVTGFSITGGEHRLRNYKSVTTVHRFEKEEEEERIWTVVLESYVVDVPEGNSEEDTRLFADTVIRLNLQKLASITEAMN
Substitution | relative binding score
S26P | -2.12%
T173I | 0.161%
T160V | -2.12%
E14R | 5.34%
T86Q | 4.02%
G148T | -1.61%
E129R | 14.6%
F124L | 34.7%
F157S | 1.41%
Q10E | 45.3%
S80F | 57.7%
I57R | 2.33%
V145M | -10.5%
Q167E | 36.6%
V143A | 6.57%

Excerpt of the above (series 4):
Substitution | binding free energy change
S15M | 0.263 kcal/mol
S17W | 1.44 kcal/mol
I86K | 1.11 kcal/mol
R5P | 0.186 kcal/mol
Q50D | 0.104 kcal/mol
P44S | 0.566 kcal/mol
R3Q | -0.0188 kcal/mol
D30Q | 0.339 kcal/mol
S46R | -0.0714 kcal/mol
L48H | 0.0582 kcal/mol
Q40I | 0.233 kcal/mol
